Measured values gathered from unrelated publications.
Compare with care: the assays were run in different laboratories. ± marks the error that the study gave.

| SMILES | assay | test system | conditions | how to read | endpoint | value |
| --- | --- | --- | --- | --- | --- | --- |
| N#Cc1ccc2c(c1)[C@H]1CCCN(C(=O)c3ccc4[nH]cnc4c3)[C@H]1C2 | – | human females | 240 mg, day 7 | – | SHBG level | 36.4 nmol/L |
| COc1ccnc(C(=O)N[C@H]2COC(=O)[C@H](Cc3ccccc3)[C@@H](O)[C@H](C)OC2=O)c1O | aerobic dark soil incubation | clay loam soil | 20 °C, modelling endpoint | – | DT50 | 17.5 days |
| COc1ccc2[nH]c([S+]([O-])Cc3ncc(C)c(OC)c3C)nc2c1 (stereo not shown) | – | healthy Chinese volunteers, plasma | oral, 20 mg, enteric-coated tablets, CYP2C19 poor metabolizers | – | AUC(0-inf) | 3880 ± 1400 ng·h/mL |
| O=C(N/N=C/c1ccccc1O)c1ccncc1 | – | rat plasma | 0.24 µM, 7 days, -80 °C, long-term storage | – | stability | 98.9% |
| O=C(OC(C(F)(F)F)C(F)(F)F)N1CCN(Cc2cccc(Oc3ccccc3)c2)CC1 | PET blocking study | rhesus monkey, brain CB | 0.3 mg/kg, compound pretreatment, together with: [18F]T-401 tracer | – | Ktrans | 0.0306 min⁻¹ |
| CC(C)(C)NCC(O)c1cc(O)cc(O)c1 (stereo not shown) | equilibrium dialysis | rat, plasma | – | – | fraction unbound | 0.66 |
| OC[C@H]1O[C@@H](c2ccc(Cl)c(Cc3ccc(O[C@H]4CCOC4)cc3)c2)[C@H](O)[C@@H](O)[C@@H]1O | – | Japanese type 1 diabetes patients, blood | 2.5 mg, day 28 | baseline: baseline | change in Magnesium | 0.1 mEq/L |
| C[C@@H]1CCO[C@H]2Cn3cc(C(=O)NCc4ccc(F)cc4F)c(=O)c(O)c3C(=O)N12 | – | human paediatric patients, weight sample B to under sample C kg, plasma | oral, 30 mg dispersible tablet, 24 h, steady state, geometric mean, population PK post-hoc, N 5 | – | trough concentration (C24) | 1100 ng/mL |
| C[C@@H](Nc1cc(F)cc(F)c1)c1cc(C(=O)N(C)C)cc2c(=O)cc(N3CCOCC3)oc12 | item: Dehydration | advanced solid tumour patients | oral, dose not given, dose expansion | – | related serious adverse events | 5% |
| C[C@@H](O)CCOC(=O)C[C@@H](C)O | – | human | oral drink, dose not given, 240 min post dose, mean | – | heart rate | 73 beats/min |
| N#CCNC(=O)c1ccc(-c2ccnc(Nc3ccc(N4CCOCC4)cc3)n2)cc1 | – | healthy volunteers | oral, 100 mg, together with: ritonavir 100 mg | – | grade 3 adverse events | 0% |
| O=C(O)CCC(=O)O.[2H]C([2H])([2H])Oc1cc(C)c2[nH]ccc2c1CN1CC[C@@H](C2CC2)C[C@H]1c1ccc(C(=O)O)cc1 | – | healthy Chinese subjects | oral, 200 mg, single ascending dose | – | subjects with elevated uric acid | 8.3% |
| C=CCN1CC(=O)N2[C@@H](Cc3ccc(O)cc3F)C(=O)N(Cc3cccc(N4CC(N5CCN(CC)CC5)C4)n3)C[C@@H]2N1C(=O)NCc1ccccc1 | – | advanced solid tumour patients | oral, 80 mg twice daily, grade ≥3, dose-escalation | – | any treatment-related adverse event | 0% |
| C[C@H]1Oc2cc(cnc2N)-c2c(nn(C)c2C#N)CN(C)C(=O)c2ccc(F)cc21 | population PK | patients with severe renal impairment, plasma | oral, 100 mg, median, single dose | – | clearance | 80.2 mL/min |
| CN[C@@H](C)C(=O)N[C@H]1CN(S(=O)(=O)c2cccc(S(=O)(=O)N3CC[C@H]4CC[C@@H](C(=O)NC(c5ccccc5)c5ccccc5)N4C(=O)[C@@H](NC(=O)[C@H](C)NC)C3)c2)CC[C@H]2CC[C@@H](C(=O)NC(c3ccccc3)c3ccccc3)N2C1=O | LC-MS/MS, noncompartmental | human, plasma | 20 mg, cycle 1 day 1 | – | Vss | 103 L |
| Cc1cc(NC2CCN(C(=O)OC3CCN(C(=O)/C=C/CN(C)C)C3)CC2)n2ncc(C(C)C)c2n1 (stereo not shown) | Phase I dose escalation CTCAE v4.0, item: blood creatinine increased | patients with advanced solid tumours | dose not given, QD dosing grade 3 or higher | – | patients with adverse event | 0% |
| Cc1cc(-c2nccc3c2ccn3CC(=O)Nc2ccc(-c3cnccn3)cn2)ccn1 | – | human | SAD part, single 7 mg dose | – | subjects with cardiac disorders TEAEs | 0% |
| COc1ccc(/C=N/NC(=O)Cn2c(-c3ccc(S(C)(=O)=O)cc3)nc3cc(C)ccc32)cc1 | – | rat, stomach | concentration not given, 4 h | – | ulcer number | 2.67 |
| CNC(=O)c1ccc(-c2cnc3ncc(Cc4ccc5ncccc5c4)n3n2)cc1F | item: Insomnia, all grades | cancer patients | oral, 600 mg twice daily, expansion cohort, any causality | – | patients with adverse event | 8% |

A few entries again:
| SMILES | assay | test system | conditions | how to read | endpoint | value |
| --- | --- | --- | --- | --- | --- | --- |
| N#CCNC(=O)c1ccc(-c2ccnc(Nc3ccc(N4CCOCC4)cc3)n2)cc1 | – | healthy volunteers | oral, 100 mg, together with: ritonavir 100 mg | – | grade 3 adverse events | 0% |
| O=C(O)CCC(=O)O.[2H]C([2H])([2H])Oc1cc(C)c2[nH]ccc2c1CN1CC[C@@H](C2CC2)C[C@H]1c1ccc(C(=O)O)cc1 | – | healthy Chinese subjects | oral, 200 mg, single ascending dose | – | subjects with elevated uric acid | 8.3% |
